Results gathered from unrelated publications.
Each numbered part is a random draw from the data of one study; scales do not carry over between parts. Substitutions count along the parent as printed.

Set 1
Target: Transcriptional repressor CTCF (CTCF, Homo sapiens, UniProt P49711, residues 1-727, full length assumed)
Technique: protein-binding microarray
Form: double-stranded DNA, one strand shown
Matrix: in vitro
Concentration: not given
Setting: k-mer, scored over probes, only values ≥0.25
Direction: higher = stronger binding
Target sequence (chain): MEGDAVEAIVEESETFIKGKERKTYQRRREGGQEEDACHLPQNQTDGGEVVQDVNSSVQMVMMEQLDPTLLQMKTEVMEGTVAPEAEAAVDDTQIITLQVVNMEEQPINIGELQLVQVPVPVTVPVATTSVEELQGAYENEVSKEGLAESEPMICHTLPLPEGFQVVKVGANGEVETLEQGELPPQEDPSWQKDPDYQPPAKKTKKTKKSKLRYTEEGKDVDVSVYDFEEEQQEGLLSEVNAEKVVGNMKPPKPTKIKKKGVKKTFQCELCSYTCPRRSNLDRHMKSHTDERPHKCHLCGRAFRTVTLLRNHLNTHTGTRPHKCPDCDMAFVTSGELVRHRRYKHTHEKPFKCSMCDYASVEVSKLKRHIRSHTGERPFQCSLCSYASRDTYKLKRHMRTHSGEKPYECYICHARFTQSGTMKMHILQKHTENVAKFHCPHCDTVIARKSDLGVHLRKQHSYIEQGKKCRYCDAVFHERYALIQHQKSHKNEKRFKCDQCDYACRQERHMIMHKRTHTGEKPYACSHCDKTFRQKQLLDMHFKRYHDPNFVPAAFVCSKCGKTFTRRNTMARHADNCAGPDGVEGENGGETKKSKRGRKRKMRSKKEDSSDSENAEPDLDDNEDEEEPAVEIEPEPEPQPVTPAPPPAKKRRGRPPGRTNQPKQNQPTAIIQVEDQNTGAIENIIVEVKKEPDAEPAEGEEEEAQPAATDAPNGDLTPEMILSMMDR
Strand	E-score
ACATGCGC	0.367
ATGCGCAA	0.42
ATATTAGA	0.307
GCCGCATA	0.266
GTTTCCTA	0.27
AAAACACC	0.287
TAATCGCA	0.292
GGAAAAAC	0.257
GTGGTGTA	0.281
ACATATAT	0.368
AGATAATG	0.281
TTGAAAAA	0.257
GCGCTAAC	0.256
ACACACAT	0.288
AAAATGAT	0.404
CGCAAACA	0.279
ACGAGTAA	0.265
CTTGCGCC	0.361
ACTACTAT	0.258
TAGTATAA	0.302
TACGATAA	0.306
TAAACATA	0.318
AGTATAAA	0.336
ACAATACT	0.313
ACGTGCGC	0.297

Set 2
Target: Interferon regulatory factor 3, full length, phosphomimetic (IRF3, Homo sapiens, UniProt Q14653, residues 1-427, S386D/S396D/S398D/S402D/T404D/S405D)
Chain of UniProt Q14653 (whole entry, unmodified, looked up): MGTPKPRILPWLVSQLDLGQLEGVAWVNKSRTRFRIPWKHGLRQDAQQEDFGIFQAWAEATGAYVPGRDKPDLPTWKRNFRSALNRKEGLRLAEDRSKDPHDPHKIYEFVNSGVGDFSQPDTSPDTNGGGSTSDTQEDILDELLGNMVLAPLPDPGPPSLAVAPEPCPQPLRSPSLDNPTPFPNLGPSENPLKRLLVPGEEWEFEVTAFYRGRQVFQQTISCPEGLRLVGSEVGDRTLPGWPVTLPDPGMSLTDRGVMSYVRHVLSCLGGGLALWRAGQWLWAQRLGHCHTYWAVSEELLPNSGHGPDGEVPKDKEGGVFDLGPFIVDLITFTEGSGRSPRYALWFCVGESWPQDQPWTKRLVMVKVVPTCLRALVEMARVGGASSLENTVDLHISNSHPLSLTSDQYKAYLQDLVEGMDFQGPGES
Technique: protein-binding microarray
Form: double-stranded DNA, one strand shown
Matrix: in vitro
Concentration: 2540 nM top
Setting: 60-bp whole probe
Together with: salmon DNA 0.4 mg/ml
Baseline: random background probes
Direction: higher = stronger binding
Shared flanks, not repeated: GCCTAGCAC … GTCTTGATTCGCTTGACGCTGCTG
Strand	fitted relative affinity [z-score]
GACGAACTGTGGTATCGAGACGTGCTA	-0.0947
TTAGAACTGGCGTTTCGATTAGTGCTA	1.04
GAGGGACTGGACTATCGGGACGTGCTA	-0.91
GAGGGTGTTCTTTTCTGTTGGTGCTAG	0.572
TTAGATATCAGTATCGAGTAGTGCTAG	1.02
GACGATATCGGGACTGGAGGCGTGCTA	-0.0526
GACGTACTGAGTTTCGAGACGTGCTAG	1.18
TTAGAACTTGGGTATCGATTAGTGCTA	-0.278
CTAGGTATCGACACTGGGTTAGTGCTA	0.261
TTAGGAATGCTACTGCTTTAGTGCTAG	-0.481
TATCAGGGCATCCCCTTGAAGTGCTAG	-0.222
TGCAACATCTACAATGGCTTTGTGCTA	-0.169
TCCACTTGTCTTTTCATTTTGTGCTAG	1.66
TAAGGTCTCGGACTGGGTTAGTGCTAG	-0.586
TTAGGTATCGACACCGGGTTAGTGCTA	0.201
ACCACTCCAGTTCTGGGAAAGTGCTAG	0.495
GACGGTATCCTCTTCCTGACGTGCTAG	2.66
TTAGATTTCAGTCTCGATCAGTGCTAG	2.38
GACGATATCGGGTATCGATACGTGCTA	0.742
TTAGGTATCGGTACCGGTTAGTGCTAG	3.35
TTAGGACTGGGTTTCGGATAGTGCTAG	2.05
TTAGATACCAGACTGGATTAGTGCTAG	0.927

Set 3
Target: CCNA2, cyclin fold, Cln2 fusion (human)
Technique: yeast growth competition, sequencing
Matrix: yeast
Setting: strong parent motif
Baseline: not given
Direction: higher = stronger binding
Starting sequence: ITGB3BP docking peptide (human); MPVKRSLKLDGLL
Variant	normalised enrichment score
MPVKRSLKLDGLA [L13A]	2.26
MPVKKSLKFDGLL [R5K L9F]	2.55
MPVKASAKLDGLL [R5A L7A]	0.47
MPVARSLKLDGLL [K4A]	1.81
MAVKRSLKLDGLL [P2A]	1.84
MPVKRSLKLAGLL [D10A]	1.55
MPAKRSLKLDGLL [V3A]	2.61
MPVKRSLKFDGLL [L9F]	5.52
MPVKRSLKLDALL [G11A]	3.06
MPVKRSAKLDGLL [L7A]	1.79

Set 4
Target: Fragile X messenger ribonucleoprotein 1, C-terminal low-complexity region (Fmr1, Mus musculus, UniProt P35922)
Technique: RNA Bind-n-Seq
Form: RNA
Matrix: in vitro
Concentration: 200 nM
Setting: whole 134-nt RNA, ends assumed
Together with: 150 mM LiCl
Baseline: input library
Direction: higher = stronger binding
Each molecule: 7-deaza-guanosine replaces G
Shared flanks, not repeated: GGGAGUUCUACAGUCCGACGAUC … UGGAAUUCUCGGGUGUCAAGG
Strand	log2 enrichment
GCAGGAAGUAAAAACAAAUGGAAAUGCUUCGGAUAGUGGCAGGGGUGGGGGUUGCUAAGGAAAGGGUGGGAUGGGAGUGGGUAACGAGUU	1.76
AAGUCCUGUGCUACACAUCGUAUGUACCGAAUCGGGUUUGGGGUUUGGGUUUGGGGAAAGUAUUAUGUUACGCCGUUCGGAUCUGCACUU	-1.18
CUCAAGUCCUGUGCUACACAUCGUAUGUACCGAAUCGGGAAGGAAGGGGAAGGGAAAGUAUUAUGUUACGCCGUUCGGAUCUGCACUUCC	-0.636
UGGGAGGUGGAUUUUGUCUAUUUUUUUAGCUCAUUUCCAGGGGUGGGAAUUUUUUUUUAAUAUGUGUCAUGAAUAAAGUUGUUUUUGAAA	-0.348
CCUGUGCUACACAUCGUAUGUACCGAAUCGGGGUUUUUUUGGGGAAAAAAAGGGGUGGGGAAAGUAUUAUGUUACGCCGUUCGGAUCUGC	-1.35
CCUGUGCUACACAUCGUAUGUACCGAAUCAAACCCCCCCAAAUUUUUAAACCCCCCCAAAAAAGUAUUAUGUUACGCCGUUCGGAUCUGC	1.82
CCUGUGCUACACAUCGUAUGUACCGAAUCGGGAAAAAAAGGGUUUUUGGGAAAAAAAGGGAAAGUAUUAUGUUACGCCGUUCGGAUCUGC	-1.81
CUCAAGUCCUGUGCUACACAUCGUAUGUACCGAAUCGGGGAAGGGGAAGGAAGGAAAGUAUUAUGUUACGCCGUUCGGAUCUGCACUUCC	-1.13
AGUCCUGUGCUACACAUCGUAUGUACCGAAUCGGGAAAAAGGGUUUUUUUGGGUGGGAAAGUAUUAUGUUACGCCGUUCGGAUCUGCACU	-2.61
AAGUCCUGUGCUACACAUCGUAUGUACCGAAUCGGGUUUUUGGGUGGGUUUUUGGGAAAGUAUUAUGUUACGCCGUUCGGAUCUGCACUU	-1.76
AGUCCUGUGCUACACAUCGUAUGUACCGAAUCGGGGAAAAGGGGAAAAGGAAAAGGGGAAAGUAUUAUGUUACGCCGUUCGGAUCUGCAC	0.158

Set 5
Target: RNA binding protein fox-1 homolog 2, RRM domain, GST-SBP tag (RBFOX2, Homo sapiens, UniProt O43251-10, residues 100-194)
Technique: RNA Bind-n-Seq
Form: RNA
Matrix: in vitro
Concentration: 365 nM
Setting: natural RNA segment, single round, ends assumed
Baseline: no-protein control
Direction: higher = stronger binding
Shared flanks, not repeated: GGGAGUUCUACAGUCCGACGAUC … UGGAAUUCUCGGGUGCCAA
Construct (chain): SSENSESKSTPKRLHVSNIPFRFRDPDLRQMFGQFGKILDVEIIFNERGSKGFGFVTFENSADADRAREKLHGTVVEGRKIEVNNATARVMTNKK
Strand	RBNS enrichment (R)
CUAGCCCCUCCUCCCCGCGAGACUCUCAGGCUGAGGUCGGCAAGCCGUGGCUCCCCCACACACCGUGCAAUACCCUGUCUGACCUGGGCUCUUCCCGCCUGCAUCCCUCC	0.644
CCUUGGCCACCAUACGGGCCAUCCUCAGUGAGGCAGCCCCCCAUAGGCUUCCGCCAAGCUCUGGUCCCGAAGAGGCUGUGCGAGCCCUUCCCGGCCCUCCCCAGGGCCCC	0.234
UCUUAGAACCAAGGGCCUCAUUAUGGUCACUCACAGCUCAGUUAUGGUCUUGCCCCAGCUGGCCCUGGCACAGGAGUUCUCUUACCUGGCUGGUGAGUGGCCUGUGUUAG	0.307
GUUUAGUGAAAACUAGAGAAACACAAUAAGCAAAUCACUUGAAGGCUGAGAUGAUUGAACUGAAAGUUCCCAUAGCGUGGAUGAAACCGAGCAGCAGAGCAGCAGGACAU	0.648
CUUAGGGUUUGGGAGAAGUUGGAAUUAACCCAAGGUCAAGUCCUUUCUUUUGCCUCCGAGAUGACCAAAUGCACUUGUGUCUUCUGUUUGUUGCUUGUUGAGUAAGCAGC	1.47
UAGAAGAAAGAGAAGUGUUUUUUUAAUUGAGAGCCUCUAUGUGCAAGGUGAUAUAUAAUCAUAUCCAGUUUAAUCUUCACAAUAUCCAAUGAAGAAGGUCUCAUUAUCUC	0.615
CAAAAGCAGCCUCUGGCCUUCCCUCCACCGCUUUGCUCCAUCUGGCUUACCACUCUCCAGGGCCUCCUGGGGAGCCUGUCCUGUGUUCACUUUGUUUCAGGCUGGUCUGU	0.284
GAAAAUGGUAAUGAAAGGGCAUGCCCAGGCUCUUUAGCAGCCCAGGGAAACAGAGAAGUCUCCCUUAAAGGCAGGGCCUGGGAGGAAUGGUGGCAAAGGUAUAAUGUAUC	1.98
AUGUCGGGCCAGCCAACAGUAACACUUGCCAAGAAGCAUGGCGUAGAAAUUUCUAUGUUCCGAAACAAGAGUAGUGUCCACAUGUGAGCUUUUCACAUUACCUUAUGUAU	3.03
GGGCCUUCUUCUCCAGAAGGCUGUUGCUGUCACUUGCUGCUAGGAGCCUCCAAGCUGAUCAAGCAAUUCUUUCCUGUAAUCUGAUAGGAGGCAGCAAGCAAGGACAUCCU	0.244
CUUCUAGCCAAUCACGCUCUGGACCAGCAUGUUGGAAUCCAGUGUGGGGCAAAUGCAGUAAAGAUUUUUCCGUUUCUGUAUGAGUUGUUCCUUCAGUCCCUUCCUCCCGC	12.1
GAGCGGCGACGCAAGUACCACUGAAGAGGGGUCGCUGGAGGGCAUUGCAUGGCCGAGCAUAACUGCCCGCCCCACUCCGACCUAGGAAGAAUUCAACUGGCUGAACCUUC	7.73

For quick reference, copied from above (set 4):
Strand	log2 enrichment
GCAGGAAGUAAAAACAAAUGGAAAUGCUUCGGAUAGUGGCAGGGGUGGGGGUUGCUAAGGAAAGGGUGGGAUGGGAGUGGGUAACGAGUU	1.76
AAGUCCUGUGCUACACAUCGUAUGUACCGAAUCGGGUUUGGGGUUUGGGUUUGGGGAAAGUAUUAUGUUACGCCGUUCGGAUCUGCACUU	-1.18
CUCAAGUCCUGUGCUACACAUCGUAUGUACCGAAUCGGGAAGGAAGGGGAAGGGAAAGUAUUAUGUUACGCCGUUCGGAUCUGCACUUCC	-0.636
UGGGAGGUGGAUUUUGUCUAUUUUUUUAGCUCAUUUCCAGGGGUGGGAAUUUUUUUUUAAUAUGUGUCAUGAAUAAAGUUGUUUUUGAAA	-0.348
CCUGUGCUACACAUCGUAUGUACCGAAUCGGGGUUUUUUUGGGGAAAAAAAGGGGUGGGGAAAGUAUUAUGUUACGCCGUUCGGAUCUGC	-1.35
